Measurements gathered from unrelated publications.
A part holds a random share of what one study measured.

Block 1
Target: TAR DNA-binding protein 43, full length, His tag (TARDBP, Homo sapiens, UniProt Q13148, residues 1-414)
Method: RNA Bind-n-Seq
Molecule type: RNA
Medium: in vitro
Tested at: 20 nM
Setting: 6-mer, flanks averaged, single round
Together with: 150 mM KCl
Baseline: input library
Direction: higher = stronger binding
Endpoint: 6-mer enrichment (R)
CACUUG: 0.644
UGCAAA: 0.689
AAAAAG: 0.777
GAGAGG: 3.98
UAAAAU: 0.67
GGCUAG: 1.75
GGCUCG: 1.57
UGGGCU: 1.78
AAGGGA: 2.14
UCCUGG: 0.856
CUCAGC: 0.652
GGUCUA: 0.838
GUCCCU: 0.694
CGAAGU: 0.755
ACAACU: 0.631
UUCUGG: 0.825
UCUCUG: 0.612
CGAAAA: 0.642
CGAUGU: 0.775
GCCUUA: 0.684
GUGAUC: 0.779
UCGCGU: 0.786
CCGCGG: 1.57
CAACCU: 0.588
CCCUGA: 0.665

Block 2
Target: Interferon regulatory factor 5, full length, phosphomimetic (IRF5, Homo sapiens, UniProt Q13568-2, residues 1-514, K96S/S451D/S453D/S456D/S462D)
Method: protein-binding microarray
Molecule type: double-stranded DNA, one strand shown
Medium: in vitro
Tested at: 250 nM
Setting: 60-bp whole probe
Together with: salmon DNA 0.4 mg/ml
Baseline: random background probes
Direction: higher = stronger binding
Endpoint: log fluorescence
Constant ends, left off below: GCCTAGCAC … GTCTTGATTCGCTTGACGCTGCTG
TTGCAGATGACGAAACTGAAGTGCTAG: 2 z-score
GACGATTGCGGGTATCGAGACGTGCTA: 0.736 z-score
TGAGGTTTCGGGACTGGGTTAGTGCTA: 3.64 z-score
TTAGGTTTCCTGCTGCTTTAGTGCTAG: 0.254 z-score
GACGACATCAGTTTCGAGACGTGCTAG: 5.27 z-score
TCATTCATGAAATTTTAGACTGTGCTA: 0.56 z-score
TCACCTTTTAAGTTCTCACTGTGCTAG: 0.767 z-score
TTAGGACTGCTTATCATTTAGTGCTAG: 0.00396 z-score
GAGGAACTGAGACTGGAGACGTGCTAG: -0.406 z-score
TTAGGTATCCGGTATCGGTTAGTGCTA: 5.4 z-score
TTAGGTATCAACACTGGGTTAGTGCTA: 0.376 z-score
CTGCCTGTCCATTCCTTCCAGTGCTAG: -0.0907 z-score
TTAGGACTGTGGTTTCGGTTAGTGCTA: 7.85 z-score
GACGGTATCCTACTGGTGACGTGCTAG: -0.182 z-score
GACGATTACAGTATCGAGACGTGCTAG: 1.76 z-score
TTAGGTATAGACACTGGGTTAGTGCTA: -0.156 z-score
CTGTTTTTGCTTTCTTTATGGTGCTAG: 2.86 z-score
TGAGGTTTCGGTCTCGGTTAGTGCTAG: 9.37 z-score

Block 3
Target: Sal-like protein 4, full length isoform A (SALL4, Homo sapiens, UniProt Q9UJQ4, residues 1-1053)
Chain of UniProt Q9UJQ4 (whole entry, looked up): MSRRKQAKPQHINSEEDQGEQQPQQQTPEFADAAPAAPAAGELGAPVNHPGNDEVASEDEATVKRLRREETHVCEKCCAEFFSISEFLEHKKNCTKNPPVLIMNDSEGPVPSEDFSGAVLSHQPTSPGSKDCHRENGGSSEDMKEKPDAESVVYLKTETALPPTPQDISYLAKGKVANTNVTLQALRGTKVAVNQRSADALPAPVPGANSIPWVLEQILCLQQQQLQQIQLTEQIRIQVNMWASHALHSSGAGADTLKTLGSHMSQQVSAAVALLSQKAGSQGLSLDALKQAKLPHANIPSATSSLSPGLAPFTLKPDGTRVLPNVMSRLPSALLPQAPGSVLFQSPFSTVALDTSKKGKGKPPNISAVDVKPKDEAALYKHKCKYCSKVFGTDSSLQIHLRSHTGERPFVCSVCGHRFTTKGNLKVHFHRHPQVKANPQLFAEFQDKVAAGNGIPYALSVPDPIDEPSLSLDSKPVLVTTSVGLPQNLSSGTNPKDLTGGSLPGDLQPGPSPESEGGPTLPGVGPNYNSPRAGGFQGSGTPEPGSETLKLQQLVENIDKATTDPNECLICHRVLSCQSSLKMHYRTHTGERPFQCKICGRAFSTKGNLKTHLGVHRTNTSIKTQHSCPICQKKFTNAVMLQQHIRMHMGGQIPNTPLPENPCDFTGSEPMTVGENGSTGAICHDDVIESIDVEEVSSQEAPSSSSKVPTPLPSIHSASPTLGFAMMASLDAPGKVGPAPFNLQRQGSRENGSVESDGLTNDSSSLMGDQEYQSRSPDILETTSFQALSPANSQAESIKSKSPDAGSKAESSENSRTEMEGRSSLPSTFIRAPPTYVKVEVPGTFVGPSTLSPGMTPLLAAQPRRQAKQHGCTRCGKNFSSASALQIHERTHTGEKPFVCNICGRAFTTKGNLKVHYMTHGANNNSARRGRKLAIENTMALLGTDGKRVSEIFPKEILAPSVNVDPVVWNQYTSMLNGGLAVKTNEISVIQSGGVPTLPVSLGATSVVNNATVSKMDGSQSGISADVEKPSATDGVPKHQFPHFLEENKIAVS
Method: universal PBM
Molecule type: double-stranded DNA, one strand shown
Medium: in vitro
Tested at: 600 nM
Setting: 8-mer, flanks averaged, mean of replicates
Direction: higher = stronger binding
Endpoint: E-score
CTTTGAAC: -0.0169
CAACTAAG: -0.00218
ATAAAATC: 0.297
AGGAGCCT: -0.272
GCAACTAC: 0.0717
CTGTTTTA: 0.185
CGACTTTA: 0.165
ACAAGTAG: 0.0632
CCTGCACG: -0.145
ACGCCGTG: -0.177
CAAGTTCA: -0.044
GGTGTTAC: -0.0413
GGTGACAA: -0.0022
GAGGCAAC: -0.222
GATGCTCC: -0.224
ACCTATAT: 0.313
CCGTTACA: 0.0896
AGGGGACC: -0.408
AGTTTCAA: 0.123
GGGGGGAA: -0.182
ACCGCGGA: -0.272
GGTTAGGA: -0.0912
AGCCACAA: 0.0255
ATTCTACG: 0.000265
ACTCAACA: 0.212

Block 4
Organism: Saccharomyces cerevisiae
Observed: binding
Method: competitive growth deep sequencing
Molecule type: peptide
Strain: cyclin E1-Cln2 fusion strain
Tested at: concentration not given
Setting: peptide tiling library
Direction: direction not given
Endpoint: growth enrichment score
IFNKPECGRVQRAIFQ: 0.631
MNQELLSVGSKRRRTG: 1.31
ASVLSKPIFCFVKD: 0.738
IPMIAKNLMCELDE: 0.34
HPESPPRKRLKSKGSD: -0.301
PKNAKRNLSSEFAN: 1.57

Block 5
Target: RING finger protein unkempt homolog, zinc fingers 1-6, GST-SBP tag (UNK, Homo sapiens, UniProt Q9C0B0, residues 30-357)
Chain of UniProt Q9C0B0 (30-357, looked up): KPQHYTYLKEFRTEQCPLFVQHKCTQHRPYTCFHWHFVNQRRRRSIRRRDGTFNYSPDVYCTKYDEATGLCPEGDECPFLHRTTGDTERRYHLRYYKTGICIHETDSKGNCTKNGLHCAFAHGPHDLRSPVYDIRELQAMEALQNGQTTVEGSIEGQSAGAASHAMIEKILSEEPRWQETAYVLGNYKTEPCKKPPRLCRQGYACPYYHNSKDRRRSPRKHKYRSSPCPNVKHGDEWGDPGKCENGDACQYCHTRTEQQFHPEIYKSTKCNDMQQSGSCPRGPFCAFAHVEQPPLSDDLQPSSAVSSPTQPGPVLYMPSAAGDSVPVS
Method: RNA Bind-n-Seq
Molecule type: RNA
Medium: in vitro
Tested at: not given
Setting: RNA with constant flanks, human and mouse sites, ends assumed
Baseline: input RNA pool
Direction: higher = stronger binding
Endpoint: bound/input enrichment
Constant ends, left off below: GGGAGUUCUACAGUCCGACGAUC … CAACAGAGGAUUGAGCAUCA
UGCGUCAAUCCAGAAAUACAGUAUGUGAAGAUCAAAGAUGUGGCCAGGGGAAAAUUAUUCAUCUUAACGGAAGCCAGAUUAUCGGCCCUCUAUAAGCAAGAGAGCGACUAUGAGAUACUU: 0.282 ratio
AACAGCUGCAGGCAGGAUGGUCCGUCCAUCCUGGAGCACAGACCGACAGGCAGAGGAAGCAGGAAGAACUGACAGACGAGGAGAAGGAGAUCAUCAACAGAGUGAUUGCUCGGGCAGAGA: 0.253 ratio
GCAGGAAAAACGAAAUUACUUGCAAUUAUGCCAGAUGAGCUGAAGCACAUUAUUGGGGCUGAGACAACACGGAAAGGUAUUCUUCGUGUUUUUGAAAUGUUUCAGCACAACCAAUUAAAU: 0.2 ratio
UCAGCCAUUGGUGUGCACUCAUCUUUAGCACCAUUGGUGAAAAUUCUCGAGAGCUGUGGAAUAGAGUCAAAGAUUGAGCCAGAAGUCAAUGACUCCCUGGGGGUUUACUGCAUUGAUGCC: 0.345 ratio
UAAAUAUUAUAUAUAUCAAAAGCCAAAAUCUUUAUUUUUAUGCAUUUAGAAUAUUUUAAAUAGUUCUCAGAUAUUAAGAAGUUGUAUGAGUUGUAAGUAAUCUUGCCAAAGGUAAAGGGG: 7.03 ratio
CCAGGGGGUGAUCAAGUACAUGGGGCCGGCAGGAGCAAAGAAUCUGCAGAGUGUUGUGCUUAGUAAAAUGAAUUUUGAAUCUUUUGUAAAAGAUCUUCUUCUGGUUCGUCAGUAUAGAGU: 4.35 ratio
AAAACAGAAUCAAAAAUAAAAUAAAAAUCAAUGCGGUCUCUUUGCAGAAUGUUUUGCUUGAUGUUUAAAAAAGUACCUUGGAUCUUAUUUUGUAAAUAUUUACAUUUUUGUUAAAAAAUA: 0.377 ratio

Block 6
Target: RNA binding protein fox-1 homolog 2, RRM domain, GST-SBP tag (RBFOX2, Homo sapiens, UniProt O43251-10, residues 100-194)
Method: RNA Bind-n-Seq
Molecule type: RNA
Medium: in vitro
Tested at: 365 nM
Setting: natural RNA segment, single round, ends assumed
Baseline: no-protein control
Direction: higher = stronger binding
Endpoint: RBNS enrichment (R)
Constant ends, left off below: GGGAGUUCUACAGUCCGACGAUC … UGGAAUUCUCGGGUGCCAA
Construct (chain): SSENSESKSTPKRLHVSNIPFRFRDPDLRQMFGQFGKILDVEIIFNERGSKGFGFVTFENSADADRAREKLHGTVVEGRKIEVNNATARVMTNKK
GUUGGGGCGGGUGAGCCAAAGCGGCCCCCCAUGGUGUCUACCUGAGGGGCAGGGAACCGCCUGCCUGUGCACUCACGCCACCCCCCAGCCCACAAAGAGCCCAUCUGAGA: 0.294
CUGGCUGGGCUGGCUGAAGAAUGAAGACCACUGGACUCUCCGUUAAUCUCUAAGGGGUCUGCUCCCCAGGAACGUUUCUGAACAAUGGGGACUUUGUUGGUAGCCAUUUG: 1.1
UCAGACAGCCAGGCACCAGAAGUGAGAGCAGAAGUCUGCAUCCUGCCGAGCCGCCGCAGACGGAGCCCCGCUGCUGACUGGACCCUCUCUGGCCCUGUGGUUCGGUUCUC: 0.347
GUGACUGAAGCCGCUUAGUGCUGUGGCCUCACUGCAGGCAGGAGCCCCGCCCCUCCUGCCGGGGGAGGCCCAGGGACCGGAGCAUUUCUGCAAGGCCCUUGUGGGCACGA: 0.269
UCCGUAUUGGAGCCCUCCCUGCUUCCCCUUCUUUCUUUCCUCUUUCCCCAGGCCGCCACUGCCCUUGCCCCUUUCAUCUCCCAGCAGCCCUCAGGAGCGUCAGGAUCAUU: 1.49
AGCCUAUCUCCAGGUAGAAAGGAGGCUUGGCCACAUCCACAUCCUGUUGAGAGACAUAGUCUCAUUUCCCUCUCUACCUUCUAAGCUACCCUUCUUGCUAAUCCUUCUUC: 0.436
GAUGACCUGUCAAUAAACUUUUUUUUACUAAUGAACUGUACAUUUAAAUAAAAGUUUAUUUUUGGGAUAAUUGUGAGCCUUUCCUUUCUCUAGAGACCUUUUAUAAAAGC: 0.713
UCUGAGCCCUUCAGUUUCAUAAUUGUUUUAUCCUGAACGUAGUUGUGACAUAGACAUUUCUCAAAAGGGUCUGAUACAUCAAACUCCUAACAAGUAGGAGCAGCAACUAG: 0.291
CAGCCCCAAACCUUUUGUUCUCUCCGUGAAACUUACCUUUCCCUUUUUCUUUCUCUUUUUUUUUUUUGUAUAUUAUUGUUUACAAUAAAUAUACAUUGCAUUAAAAAGAA: 0.386
AAAGAGGGGUACCUGUUUUCAUUUGAAAACUUUGAUUCAUGGAACCUUUAAAACUAAUCUCAGAAAAAUUUUUGGUGCCCAUGCAGCUGUAGUUGUUCACUGCUUUCCUG: 0.345
CCCUCCAGAGCUUGAACAACAACUUUAGGAGUAAAUAAAAGCCUAAAAUAUAUUUUAACCAUCCAGAGAUGGUGUUGAAUCCUUCAACAAAUGUGUCAUUCAAAACAGUA: 0.816
CUCUGGCCUUGCUCUUUCAAGUCUUGUUUGAAAAAUAAUCCAGUCAGCUGACUUCCAGUACUGUGAAUCCGCCCCUGUCAGAAGUGGCUGACCCUGUUUCUCCUCAGAUG: 0.342

A few entries again (block 3):
CCTGCACG: -0.145
ACGCCGTG: -0.177
CAAGTTCA: -0.044
GGTGTTAC: -0.0413
GGTGACAA: -0.0022
GAGGCAAC: -0.222
GATGCTCC: -0.224
ACCTATAT: 0.313
